Experimental data collected from several papers.
Lines come from different studies, so protocols differ. “And” joins repeats or separate records; there may be more than shown. ± gives the spread as reported.

CC(C)(c1ccc(O)cc1)c1ccc(O)cc1  G2 phase cells (HepG2 spheroids; Hoechst flow cytometry; 10 µM, 24 h): 19.1 ± 4.2%
Clc1ccc(N/N=C(\c2ccccc2)c2ccccn2)nc1  apoptotic cells (SK-BR-3; annexin V flow cytometry; 0.5 µM, 48 h): ~60%
CCc1cnc(N2CCC(c3nc(COc4ccc(-n5cnnn5)cc4)cs3)CC2)nc1  normalized enrichment score (HEK-293T; RNA-seq GSEA, refers to: HALLMARK_XENOBIOTIC_METABOLISM; concentration not given; direction not given): -0.868
CC(C)C[C@@H](/C=C/S(C)(=O)=O)NC(=O)[C@H](CC(C)C)NC(=O)[C@H](CC(C)C)NC(=O)OCc1ccccc1  efficacy (C127 LDR GFP reporter cells; silenced GFP reporter induction, activator, high-content imaging; retest, two-run mean): 81%
COc1cccc2c1C(=O)c1c(O)c3c(c(O)c1C2=O)C[C@@](O)(C(=O)CO)C[C@@H]3O[C@H]1C[C@H](N)[C@H](O)[C@H](C)O1  point of departure (HepG2; refers to: PERK protein; 24 h, distribution mode 1): 0.0324 µM
COc1ccccc1OCC(=O)N/N=C/C=C/c1ccc([N+](=O)[O-])o1  efficacy (C127 LDR GFP reporter cells; silenced GFP reporter induction, activator, high-content imaging; retest, two-run mean): 132%
C[C@H](NC(=O)C(=O)Nc1ccccc1C(C)(C)C)C(=O)N[C@@H](CC(=O)O)C(=O)COc1c(F)c(F)cc(F)c1F  cell lysis (THP-1 cells, LPS-primed; pyroptosis, LDH release; 25 µM, LPS 1 µg/mL, 4 h, added: nigericin 5 µM, 2 h): 39.4% and 42.3%
COc1ccc2c(c1)c1ccc3c(c1n2C)C(=O)C=CC3=O  efficacy (C127 LDR GFP reporter cells; silenced GFP reporter induction, activator, high-content imaging; retest, two-run mean): 71%
[Cl-].[Cl-].[Os+2].c1cnc2c(c1)ccc1cccnc12.c1cnc2c(c1)ccc1cccnc12.c1cnc2c(c1)ccc1cccnc12  EC50 (SK-MEL-28; phototoxicity, resazurin; normoxia, added: red light 633 nm, 100 J/cm2, 20 mW/cm2): 101 ± 5 µM
COc1ccc(-n2nc(C(C)=O)s/c2=N\N=C(/C)c2ccc(NC(=O)c3ccc(C)cc3)cc2)cc1  viability (MCF7; 10 µM): 2.89%
O=c1[nH]c(=O)c2cc(S(=O)(=O)Nc3ccc(N4CCCCCC4)cc3)ccc2[nH]1  relaxation velocity (adult rat ventricular myocytes; 10 µM; reference: basal): 123%
C[C@]12CCCN1CC1=NNC(=O)c3cc(F)cc4[nH]c2c1c34  EC50 (SW-620 colorectal cancer cells; cell viability; concentration not given, added: with temozolomide): 0.4 µM
CSc1cc(Oc2ccnc3[nH]c(=O)cnc23)ccc1NC(=O)Nc1cc(C(C)(C)C)nn1-c1ccccc1  phospho/total GSK-3β ratio (patient-derived cell clone A (sample B); reverse phase protein array, refers to: GSK-3β pSer9; human; 1 µM, 4 h; reference: DMSO): 0.61
C[C@H]1[C@@H](O)O[C@@H]2O[C@@]3(C)CC[C@H]4[C@H](C)CC[C@@H]1[C@@]24OO3  late apoptotic cells (K562; annexin V/PI flow cytometry, refers to: annexin V+/PI+; 3.2 µM, 24 h): 1.1%
CC/C(=N\NC(=O)NCc1cccc(O)c1)c1ccc(O)c(C)c1O  TAZ band intensity (SK-OV-3; Western blot; 10 µM, 1 h, 2D culture, unit not given; reference: DMSO): 0.21 ± 0.11
Cc1cc(C(C)(C)C)c(O)c(C(C)(C)C)c1  activity score (human iPSC-derived cardiomyocytes; MyBP-C/MYH ratio, plate-normalised SD score; concentration not given, primary screen; direction not given): 6
Cn1cc(-c2ccc(-c3cncc(Cl)c3N3CCC4(CCNC4=O)CC3)cc2)cn1  log2 fold change (COLO 205; gene expression, microarray, refers to: LAMB3 mRNA; concentration not given, 6 h; reference: untreated cells): 3.21
O=C(Cn1c(=O)n(Cc2ccc(F)cc2)c(=O)c2sc3ccccc3c21)Nc1ccc(F)cc1F  maximum efficacy (C127 LDR GFP reporter cells; silenced GFP reporter induction, activator, high-content imaging; independent samples, two-run mean): 43%
Oc1c(Br)cc(Br)c2cccnc12  activity score (human iPSC-derived cardiomyocytes; MyBP-C/MYH ratio, plate-normalised SD score; concentration not given, primary screen; direction not given): 4.9
NCCOc1cc(C(=O)Nc2cc(OCCN)c3ccccc3n2)nc(C(=O)Nc2cc(OCCN)c3ccccc3n2)c1  selectivity ratio (U2OS; cell viability, CellTiter-Glo; 72 h; reference: IC50 U2OS over WI-38): 0.7
COc1cccc(N2CCN(S(=O)(=O)c3ccc(-n4cnnn4)cc3)CC2)c1  efficacy (C127 LDR GFP reporter cells; silenced GFP reporter induction, activator, high-content imaging; retest, two-run mean): 208%
CCn1cc(-c2cc(Cn3ccnc3)cc3c2CCN([C@H](c2cc(OC)ccn2)C2CC2)C3=O)c(C(F)(F)F)n1  EC50 (NCI-H929; cell growth, inhibitor; 120 h): > 30 µM
CCCCc1nc(Cl)c(CO)n1Cc1ccc(-c2ccccc2-c2nn[nH]n2)cc1  log2 fold change (human PBMC; RNA-seq, refers to: STEAP4 mRNA; 10 µg/mL, 24 h; reference: untreated control): -1.9
CN1CCC(=C2c3ccccc3Sc3ccccc32)CC1  activity score (human iPSC-derived cardiomyocytes; MyBP-C/MYH ratio, plate-normalised SD score; concentration not given, primary screen; direction not given): 4.1
O=C(/C=C/C=C/C=C/C1CCCCC1)NC1=C[C@@](O)(/C=C/C=C/C=C/C(=O)NC2=C(O)CCC2=O)[C@@H]2O[C@@H]2C1=O  GI50 (KYSE-30; cell growth, CellTiter-Glo; 78 h): 10.5 µM
NCCCOc1cc(NC(=O)c2cccc(C(=O)Nc3cc(OCCCN)c4ccccc4n3)n2)nc2ccccc12  selectivity ratio (U2OS; cell viability, CellTiter-Glo; 72 h; reference: IC50 U2OS over WI-38): 1.1
CCCCN1C[C@H](O)[C@@H](O)[C@@H](O)[C@H]1CO  IC50 (sample BB patient fibroblasts; Gb3 level lowering, LC-MS/MS, refers to: Gb3 d18:1/24:0; 216 h): 11.6 µM
Clc1ccc(C(c2ccccc2Cl)C(Cl)Cl)cc1 (stereo not drawn)  activity score (human iPSC-derived cardiomyocytes; MyBP-C/MYH ratio, plate-normalised SD score; concentration not given, primary screen; direction not given): 15.7
CCn1cc(-c2cc(Cn3ccoc3=N)cc3c2CCN([C@@H](C)c2cc(OC)ccn2)C3=O)c(C(F)(F)F)n1  EC50 (JHOS2; cell growth; 120 h): > 30 µM
CC(=O)c1nn(-c2ccc(Cl)cc2)/c(=N/N=C(\C)c2ccc(NC(=O)c3ccc(C)cc3)cc2)s1  toxicity (HepG2; 0.312 µM): 72.9%
C=CC1=C(C)c2cc3[n-]c(cc4nc(cc5[n-]c(cc1n2)c(C)c5C=C)C(C)=C4CCC(=O)O)c(CCC(=O)O)c3C.[Zn+2]  fold change (SH-SY5Y; RNA-seq, refers to: FBLIM1 mRNA; 5 µM, 5 h; reference: untreated cells): 1.84
CC[C@H](C)N(CC(=O)N(CC(=O)N(CC(=O)N(CC(=O)N(CC(=O)N(CC(=O)N(CC(N)=O)[C@@H](C)c1ccccc1)[C@@H](C)c1ccccc1)[C@@H](C)CC)[C@@H](C)c1ccccc1)[C@@H](C)c1ccccc1)[C@@H](C)CC)C(=O)CNCCCCN  cytokine release (THP-1 macrophages; refers to: IL-6; 50 µM, 72 h, added: LPS 2 ng/mL; reference: LPS alone): decreased
c1ccc2[nH]ccc2c1  mRNA level, LS mean (HCT-8; RNA-seq, refers to: NAV3; concentration not given): 0.9 counts per million
Cn1cc(Nc2nccc(-c3ccc4c(c3)CN(C3COC3)CC[C@H]4NC(=O)c3cn(C(C)(C)C)nn3)n2)cn1  number of unchanged genes (human B cells; 100 nM, 64 h, stimulation-downregulated genes, added: anti-IgM): 4
O=C(CCCSc1nc2c(c(=O)[nH]1)CCCC2)Nc1nc2ccccc2[nH]1  inhibition (cells, COS-1, expressing proMMP-9; cell migration, 2D collagen dot migration; 50 µM, 18 h): 77 ± 2%
O=C(O)[C@@H]1CCC(O)=N1  activity score (human iPSC-derived cardiomyocytes; MyBP-C/MYH ratio, plate-normalised SD score; concentration not given, primary screen; direction not given): 3.2
Cc1cccc(-c2[nH]c(CNc3ccccc3F)nc2-c2ccc3ncnn3c2)n1  surface marker level (RPMI-8226; flow cytometry, refers to: CD227; concentration not given; reference: comparator compound alone): 46.6%
CCN(CC)C(=S)SSC(=S)N(CC)CC  efficacy (C127 LDR GFP reporter cells; silenced GFP reporter induction, activator, high-content imaging; retest, two-run mean): 104%
O=C(Nc1nnc2n3c(Cc4ccccc4)n[nH]c3nc(-c3ccc(Cl)cc3)c1-2)c1ccccc1  mean growth percent (NCI60 cell panel; SRB; 10 µM): 101%
COc1cc(/C=C/C(=O)N2CCC=CC2=O)cc(OC)c1OC  mRNA level (MDA-MB-468; quantitative RT-PCR, refers to: DAPK1; 30 µM, 8 h; reference: untreated cells): 62.6 ± 1.9%
COc1cc2ncnc(Nc3ccc(Oc4ccccc4)c(C)c3C)c2cc1OC.Cl  average fractional effect (LoVo (KRAS G13D); cell viability, resazurin; 3 µM, 72 h, added: trametinib 0 nM; reference: DMSO): 28%
CC(C)NCC(O)c1ccc(O)c(O)c1 (stereo not drawn)  sarcomere length (mouse ventricular cardiomyocytes; dose not given, 0.355 s): 1.8 µm
C[n+]1cc2c3c(ccc2c2ccc4cc5c(cc4c21)OCO5)OCO3  MyBP-C level (MYBPC3 iPSC cardiomyocytes; plate-normalised; concentration not given, 24 h, hit retest): 0.1%
Cc1cc(Nc2ncc(Cl)c(Nc3ccccc3S(=O)(=O)C(C)C)n2)c(OC(C)C)cc1C1CCNCC1  log2 fold change (CLB-BAR; phosphoproteomics LC-MS/MS, refers to: BOD1L phosphorylation; 200 nM, 60 min; reference: untreated): -1.64
CC[C@H]1OC(=O)[C@H](C)[C@@H](O[C@H]2C[C@@](C)(OC)[C@@H](O)[C@H](C)O2)[C@H](C)[C@@H](O[C@@H]2O[C@H](C)C[C@H](N(C)C)[C@H]2O)[C@](C)(O)C[C@@H](C)C(=O)[C@H](C)[C@@H](O)[C@]1(C)O  activity score (human iPSC-derived cardiomyocytes; MyBP-C/MYH ratio, plate-normalised SD score; concentration not given, primary screen; direction not given): 3.7
COc1cnc2cccc(N3CCc4c(cc(Cn5ccnc5C)cc4-c4cn(C)nc4C(F)(F)F)C3=O)c2c1  EC50 (LS-411N; cell growth, inhibitor; 120 h): > 30 µM
Cn1c(=O)c2[nH]cnc2n(C)c1=O  activity score (human iPSC-derived cardiomyocytes; MyBP-C/MYH ratio, plate-normalised SD score; concentration not given, primary screen; direction not given): 5
Cn1c(Nc2nc3ccc(C(F)(F)F)cc3s2)nc2cc(C(=O)NCCOCCO)ccc21  fold change (SH-SY5Y; RNA-seq, refers to: RYR3 mRNA; 5 µM, 5 h; reference: untreated cells): 1.75
C=CC(=O)N1[C@@H](c2ccc3c(c2)OCO3)c2[nH]c3ccccc3c2C[C@H]1C(=O)NC  neuron degeneration (rat DRG neurons; 0.04115 µM, 48 h, added: vincristine 40 nM): 80.4% and 77.5%
Cc1cc(-c2ccccc2)n(-c2nc(-c3ccc(Cl)cc3)c3c(NC(=O)c4ccccc4)nnc-3[nH]2)n1  mean growth percent (NCI60 cell panel; SRB; 10 µM): 94%
Clc1nc(NCc2ccco2)c2[nH]cnc2n1  ΔPSI (FD iPSC-derived cardiomyocytes; alternative splicing, RNA-seq, refers to: CCNJL exon chr5:160280524-160280948; unit not given; reference: DMSO minus compound): 0.209

For quick reference, copied from above:
CCn1cc(-c2cc(Cn3ccnc3)cc3c2CCN([C@H](c2cc(OC)ccn2)C2CC2)C3=O)c(C(F)(F)F)n1  EC50 (NCI-H929; cell growth, inhibitor; 120 h): > 30 µM
CCCCc1nc(Cl)c(CO)n1Cc1ccc(-c2ccccc2-c2nn[nH]n2)cc1  log2 fold change (human PBMC; RNA-seq, refers to: STEAP4 mRNA; 10 µg/mL, 24 h; reference: untreated control): -1.9
CN1CCC(=C2c3ccccc3Sc3ccccc32)CC1  activity score (human iPSC-derived cardiomyocytes; MyBP-C/MYH ratio, plate-normalised SD score; concentration not given, primary screen; direction not given): 4.1
O=C(/C=C/C=C/C=C/C1CCCCC1)NC1=C[C@@](O)(/C=C/C=C/C=C/C(=O)NC2=C(O)CCC2=O)[C@@H]2O[C@@H]2C1=O  GI50 (KYSE-30; cell growth, CellTiter-Glo; 78 h): 10.5 µM
NCCCOc1cc(NC(=O)c2cccc(C(=O)Nc3cc(OCCCN)c4ccccc4n3)n2)nc2ccccc12  selectivity ratio (U2OS; cell viability, CellTiter-Glo; 72 h; reference: IC50 U2OS over WI-38): 1.1
